Measured values of several laboratories.
Numbered parts are unrelated; each lists some results of a single study. Changes are numbered by the printed parent chain.

Block 1
Target: RNA binding protein fox-1 homolog 2, RRM domain, GST-SBP tag (RBFOX2, Homo sapiens, UniProt O43251-10, residues 100-194)
Technique: RNA Bind-n-Seq
Form: RNA
Sample: in vitro
Concentration: 365 nM
Notes: natural RNA segment, single round, ends assumed
Baseline: no-protein control
Direction: higher = stronger binding
Target sequence (chain): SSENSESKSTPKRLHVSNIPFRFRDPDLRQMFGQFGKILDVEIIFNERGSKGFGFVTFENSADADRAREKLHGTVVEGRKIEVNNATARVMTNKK
Under “RBNS enrichment (R)”, `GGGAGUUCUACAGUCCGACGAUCCCUGGGUGCUGGAGAGGAAGGAAACAGUUAAAGGGUAGUUACUUGGUAUCCACCUUCAUGAUUUUAACUGACCCAUAACAAUGUUGUCAGCAGUAUAGGACUGUUGAACAUGGAAUUCUCGGGUGCCAA` is recorded as 0.496.
`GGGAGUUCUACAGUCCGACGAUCUGUAAUGGCCUGAGGGAUGGUGAAGCAUUCUUUUAGUAUUUUUCAUCAUGUUGGGCUCCUAGAUUGUACUGGGGUUGCCCAUAAAUCAAACCCCAUACUCUUAGAAUUCAUGGAAUUCUCGGGUGCCAA`: “RBNS enrichment (R)” 0.217.
For `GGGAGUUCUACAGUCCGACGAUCUUGUUUCCAGACCAGCAUCCAGUGGCCAUCAGGUCUUGUGGCCCAAAGGCUAUGCUUGCCUCCGGCUGAGUGCCUGGGAUAGGCCUUUUCUAUGUCUCCCCAAGGCUGGGUGGAAUUCUCGGGUGCCAA`, “RBNS enrichment (R)” read 0.665.
For `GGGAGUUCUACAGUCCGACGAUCCCUGCCAUUGGCGGCUCUGUGUGUUAAUAGGCUAGGGAGAGAGGGGUGCUGUCUGCCACUUGCUCCCUGCCAACUUUCUGGAGAGGUGCCAAACUUGGUGUGGCCAGGAAUGGAAUUCUCGGGUGCCAA`, “RBNS enrichment (R)” read 0.263.
Under “RBNS enrichment (R)”, `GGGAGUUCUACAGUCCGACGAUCAAAUGAAUUUUUACUAUGGCAGAUAUGGUAUGGAUCGUAAAAUUUUAAGCACUAAAAAUUUUUUCAUAACCUUUCAUAAUAAAGUUUAAUAAUAGGUUUAUUAACUGAAUUGGAAUUCUCGGGUGCCAA` is recorded as 2.5.
`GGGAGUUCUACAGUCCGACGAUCUACUUGCGAAGUUUCUAUGCAUACCUUUAAGUUCAGGCCCUAGGUGAAGGACAGUCCCUCAGCCUUUCCAUUGGUUCCUUUGUGUUCAGUGCACCCAGCCUUUGAACAGAUGGAAUUCUCGGGUGCCAA` — result for “RBNS enrichment (R)”: 0.679.
`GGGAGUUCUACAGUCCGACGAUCAAAUUGAACCCAUUAAGAAUUAAUGCUUAUCAUUAUGGAGAGAUUAUCCAUUAACUUUCAUGGCUGACUUCUGUCUAGGCAUCAUAGUUUGCUUCAGAAUAGAUCUUUAUUGGAAUUCUCGGGUGCCAA`: “RBNS enrichment (R)” 0.393.
`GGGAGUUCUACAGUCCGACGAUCCAGAACCUGGAACCUAGAGGCCUUUCUCUCUGCACGAAAAACAGGUAGUUUGCAGUCUGAGAUAUGGGAGAGCUUUUAGGCUACACAGCAACCCAAGGGACCUCUCACCUUGGAAUUCUCGGGUGCCAA` — result for “RBNS enrichment (R)”: 2.36.
For `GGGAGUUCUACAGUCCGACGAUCCUGCUGUGAACAGUUAUGAACCAGGGGAGGCUGCUGCAUGUGCCUAUUAUGUUGGCAGUGGGUGGCAGGCAGAGGCAGGCACGCGAUUAGUAGAGCCCUGCUUGGGCCUCUGGAAUUCUCGGGUGCCAA`, “RBNS enrichment (R)” read 3.07.
`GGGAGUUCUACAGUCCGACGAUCUUUCCCUAGAUGAGACCUGAGGAACCCAGUUGCCCCUUCCCCCCACCCCCUUUACAGCUCCCAACUUGGGUCCUGUAAAUGGAGGUGUCAUUGCCAUCACCAUCGCCAGCUGGAAUUCUCGGGUGCCAA`: “RBNS enrichment (R)” 0.369.
`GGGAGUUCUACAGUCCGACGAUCUAAACAGUCUAGGUGCUCCUAACAACCACCCCCUGCCCGGGCCUCUCCUUUGUGAGCCACAGUUGUAGACCGUACCUCAGCCUUGGAGUCAACACAGCCCACAGCCCAUUUGGAAUUCUCGGGUGCCAA` — result for “RBNS enrichment (R)”: 0.474.
Under “RBNS enrichment (R)”, `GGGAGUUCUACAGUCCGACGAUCCCUCCCCUAAUCUGAGAAGUCAGCCUCUUGGCUCCUCAGGCCACCAUUUAGGCCUGACUGGGGUAAGAAAUGUCGCUCCACUUUACAGAGGUAGCUGUGGUGUUGAAACAUGGAAUUCUCGGGUGCCAA` is recorded as 0.22.

Block 2
Target: CCNB2, cyclin fold, Cln2 fusion (human)
Technique: yeast growth competition, sequencing
Sample: yeast
Notes: strong parent motif
Baseline: not given
Direction: higher = stronger binding
Parent: BRCA2 docking peptide (human); PSIKRNLLNEFDR
Under “normalised enrichment score”, `PSIKRNALNEFDR [L7A]` is recorded as -0.121.
For `FSIKRNLLNEFDR [P1F]`, “normalised enrichment score” read 2.97.
`PSIKRNLLYEFDR [N9Y]`: “normalised enrichment score” 4.47.
For `PSCKRNLLNEFDR [I3C]`, “normalised enrichment score” read 3.4.
For `PSIKRNLLNEFDI [R13I]`, “normalised enrichment score” read 4.44.
Under “normalised enrichment score”, `PSIKRNLLNNFDR [E10N]` is recorded as 0.614.
Under “normalised enrichment score”, `LSIKRNLLNEFDR [P1L]` is recorded as 3.4.
For `PSIKRELLNEFDR [N6E]`, “normalised enrichment score” read 0.934.
`PSIIRNLLNEFDR [K4I]`: “normalised enrichment score” 2.2.
For `PSIKRNLLCEFDR [N9C]`, “normalised enrichment score” read 3.2.
For `PSIKANLLNEFDR [R5A]`, “normalised enrichment score” read 1.24.
`PSIKRNLLNEFDK [R13K]` — result for “normalised enrichment score”: 3.57.
For `PSIKRNLLQEFDR [N9Q]`, “normalised enrichment score” read 3.79.
For `PSIKRNLENEFDR [L8E]`, “normalised enrichment score” read 2.2.
`PSIKRNLLNKFDR [E10K]`: “normalised enrichment score” 0.175.
Under “normalised enrichment score”, `PSIKRNLSNEFDR [L8S]` is recorded as 1.75.
Under “normalised enrichment score”, `PSFKRNLLNEFDR [I3F]` is recorded as 0.82.
Under “normalised enrichment score”, `PSIKRPLLNEFDR [N6P]` is recorded as 0.649.
`WSIKRNLLNEFDR [P1W]`: “normalised enrichment score” 3.77.
`PSIKRNLLEEFDR [N9E]` — result for “normalised enrichment score”: 3.77.
For `PSIKRNLLNETDR [F11T]`, “normalised enrichment score” read 0.0125.
For `PSIKRNRLNEFDR [L7R]`, “normalised enrichment score” read 0.409.
`PSIKPNLLNEFDR [R5P]`: “normalised enrichment score” 0.111.
Under “normalised enrichment score”, `PSIKRNLLNEFDA [R13A]` is recorded as 4.54.
For `PSSKRNLLNEFDR [I3S]`, “normalised enrichment score” read 0.805.

Block 3
Target: PABPC1L2, full length, GST fusion (mouse, UniProt A0ABA7IW68)
Technique: RNAcompete
Form: RNA
Sample: in vitro
Concentration: 20 nM
Notes: 7-mer, probes averaged, single round
Baseline: mean of 7-mers
Direction: higher = stronger binding
Target sequence (chain): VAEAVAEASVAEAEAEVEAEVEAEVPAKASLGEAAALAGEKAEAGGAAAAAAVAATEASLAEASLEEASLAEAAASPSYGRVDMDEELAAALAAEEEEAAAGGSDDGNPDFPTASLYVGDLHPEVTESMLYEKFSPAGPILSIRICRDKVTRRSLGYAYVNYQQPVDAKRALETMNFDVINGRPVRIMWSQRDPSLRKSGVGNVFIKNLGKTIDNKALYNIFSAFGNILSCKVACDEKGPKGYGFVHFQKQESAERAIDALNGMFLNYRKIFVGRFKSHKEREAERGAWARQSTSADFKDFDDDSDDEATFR
`AGAUGGC` gave a 7-mer Z-score of -0.24.
`AACGAUA` gave a 7-mer Z-score of 0.274.
`UUGAUGC` gave a 7-mer Z-score of -0.244.
The 7-mer Z-score of `AUCGCUG` is reported as -0.0971.
With `GUUUGCC` the 7-mer Z-score was -0.516.
The 7-mer Z-score of `GCGUAUC` is reported as -0.191.
For `CCUUCUU`, the 7-mer Z-score was -0.396.
The 7-mer Z-score of `CCUUUGG` is reported as -0.421.
The 7-mer Z-score of `CCAUGAG` is reported as -0.184.
The 7-mer Z-score of `GUAUUUC` is reported as -0.331.
The 7-mer Z-score of `ACCAACG` is reported as 0.00979.
`UGGUGAA` gave a 7-mer Z-score of 0.0968.
`AUCAUUG` has a 7-mer Z-score of -0.184.
`GUACAGC` gave a 7-mer Z-score of -0.153.
For `UUCUAGA`, the 7-mer Z-score was -0.168.
`CUUGUUG` gave a 7-mer Z-score of -0.481.
`GGUAGUC` gave a 7-mer Z-score of -0.079.

Block 4
Target: ABI1, truncated, D143A, DHFR fusion (Arabidopsis thaliana, UniProt P49597)
Technique: DHFR PCA, dose-response
Sample: yeast
Notes: Hill fit, mean, not affinity
Added: (+)-ABA, dose series
Direction: lower = more sensitive
Parent: PYL1, truncated, DHFR fusion (Arabidopsis thaliana, UniProt Q8VZS8); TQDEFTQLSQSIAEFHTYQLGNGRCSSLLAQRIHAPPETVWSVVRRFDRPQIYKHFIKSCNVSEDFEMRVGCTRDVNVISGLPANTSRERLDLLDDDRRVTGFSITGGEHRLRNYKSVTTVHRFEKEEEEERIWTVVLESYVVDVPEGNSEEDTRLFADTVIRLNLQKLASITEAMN
`T17F` gave an ABA EC50 of 31.4 µM.
The ABA EC50 of `E4V` is reported as 1.16 µM.
For `E38G`, the ABA EC50 was 11.1 µM.
`L94H` has an ABA EC50 of 6.28 µM.
For `E147H`, the ABA EC50 was 2.8 µM.
The ABA EC50 of `F103W` is reported as 82.2 µM.
With `R111Q` the ABA EC50 was 41 µM.
The ABA EC50 of `V62Y` is reported as 31.8 µM.
For `G107W`, the ABA EC50 was 273 µM.
With `Q167E` the ABA EC50 was 11.3 µM.
`V62W` gave an ABA EC50 of 49.6 µM.
`R24A` gave an ABA EC50 of 6.45 µM.
For `T17C`, the ABA EC50 was 8.89 µM.
`T17L` has an ABA EC50 of 23.7 µM.
`R98V` gave an ABA EC50 of 23.5 µM.
`R69E` has an ABA EC50 of 2.29 µM.
`F15E` gave an ABA EC50 of 91.6 µM.
With `F124C` the ABA EC50 was 2.82 µM.
`L94K` has an ABA EC50 of 583 µM.
For `R123F`, the ABA EC50 was 22.9 µM.
`E67F` gave an ABA EC50 of 6.57 µM.
`P37M` has an ABA EC50 of 31.8 µM.
With `P36Y` the ABA EC50 was 19.6 µM.
`D144G` has an ABA EC50 of 145 µM.
`L112T` has an ABA EC50 of 952 µM.

Block 5
Target: NFE2L3, bZIP domain (human)
Technique: DHFR protein complementation
Sample: yeast
Notes: single substitutions, most at no-binding floor
Baseline: wild-type JUN-FOS pair
Direction: higher = stronger binding
Parent: JUN, bZIP domain (human); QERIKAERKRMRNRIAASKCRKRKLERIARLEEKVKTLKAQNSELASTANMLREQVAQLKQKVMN; partner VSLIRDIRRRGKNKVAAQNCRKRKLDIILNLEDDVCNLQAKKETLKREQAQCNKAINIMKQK
For `Q55H`, the binding fitness was -1.46 natural log.
The binding fitness of `L31S` is reported as -1.51 natural log.
The binding fitness of `R53S` is reported as -1.51 natural log.
For `Q41V`, the binding fitness was -1.42 natural log.
The binding fitness of `E32C` is reported as -1.4 natural log.
With `K34E` the binding fitness was -1.46 natural log.
For `T48I`, the binding fitness was -1.37 natural log.
With `E32W` the binding fitness was -1.53 natural log.
`A40Q` gave a binding fitness of -1.52 natural log.
For `N42M`, the binding fitness was -1.47 natural log.
`A49D` gave a binding fitness of -1.55 natural log.
With `L45Q` the binding fitness was -1.54 natural log.
With `L52Y` the binding fitness was -1.51 natural log.
`A46T` has a binding fitness of -1.57 natural log.
With `R53L` the binding fitness was -1.42 natural log.

Single results of other studies
`PhoQ, residues 284 288 289 292 302 303 ALASRC` has a fold induction of 2.66 (PhoP, residues 12 14 15 18 19 NHTVL (Escherichia coli, UniProt P23836); Sort-seq, measured: YFP reporter; E. coli; PhoQ-PhoP variant library, added: 10 µM Mg2+; baseline: high Mg2+ state, higher = stronger signaling).

For quick reference, copied from above (block 4):
`T17L` has an ABA EC50 of 23.7 µM.
`R98V` gave an ABA EC50 of 23.5 µM.
`R69E` has an ABA EC50 of 2.29 µM.
`F15E` gave an ABA EC50 of 91.6 µM.
With `F124C` the ABA EC50 was 2.82 µM.
`L94K` has an ABA EC50 of 583 µM.
For `R123F`, the ABA EC50 was 22.9 µM.
`E67F` gave an ABA EC50 of 6.57 µM.
`P37M` has an ABA EC50 of 31.8 µM.
With `P36Y` the ABA EC50 was 19.6 µM.
`D144G` has an ABA EC50 of 145 µM.
`L112T` has an ABA EC50 of 952 µM.
